Measured values pooled from the literature.
A part holds a random share of what one study measured. Positions count from the first letter of the parent shown.

Sample 1
Target: ABI1, truncated, D143A, DHFR fusion (Arabidopsis thaliana)
Technique: DHFR PCA, deep sequencing
Medium: yeast
Setting: methotrexate growth selection, single substitutions
Together with: (+)-ABA 0.39 µM
Baseline: wild-type fitted maximum
Reading: higher = stronger binding
Parent: PYL1, truncated, DHFR fusion (Arabidopsis thaliana); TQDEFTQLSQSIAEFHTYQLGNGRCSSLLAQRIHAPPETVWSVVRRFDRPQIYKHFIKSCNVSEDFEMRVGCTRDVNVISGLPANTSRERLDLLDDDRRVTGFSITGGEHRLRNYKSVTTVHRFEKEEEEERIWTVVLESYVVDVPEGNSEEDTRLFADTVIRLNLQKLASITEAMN
Substitution | relative binding score [%]
L91K | -11
R132E | 74.8
K168P | -5.91
E139C | 24.5
D159K | -1.35
G107S | 25.4
I12H | -0.33

Sample 2
Target: CCND1, cyclin fold, Cln2 fusion (human)
Technique: yeast growth competition, sequencing
Medium: yeast
Setting: strong parent motif
Baseline: not given
Reading: higher = stronger binding
Parent: INSM1 docking peptide (human); PKAIRKLHFEDEV
Substitution | normalised enrichment score
F9K | -0.44
D11W | 2.04
H8W | 4.18
D11G | 3.45
F9T | 0.0156
F9D | -0.291
R5K | 2.05
L7Q | -0.0797
E10D | 4.7
F9A | -0.396

Sample 3
Target: Ras GTPase-activating protein-binding protein 1, full length (G3BP1, Homo sapiens, UniProt Q13283)
Chain of UniProt Q13283 (whole entry, looked up): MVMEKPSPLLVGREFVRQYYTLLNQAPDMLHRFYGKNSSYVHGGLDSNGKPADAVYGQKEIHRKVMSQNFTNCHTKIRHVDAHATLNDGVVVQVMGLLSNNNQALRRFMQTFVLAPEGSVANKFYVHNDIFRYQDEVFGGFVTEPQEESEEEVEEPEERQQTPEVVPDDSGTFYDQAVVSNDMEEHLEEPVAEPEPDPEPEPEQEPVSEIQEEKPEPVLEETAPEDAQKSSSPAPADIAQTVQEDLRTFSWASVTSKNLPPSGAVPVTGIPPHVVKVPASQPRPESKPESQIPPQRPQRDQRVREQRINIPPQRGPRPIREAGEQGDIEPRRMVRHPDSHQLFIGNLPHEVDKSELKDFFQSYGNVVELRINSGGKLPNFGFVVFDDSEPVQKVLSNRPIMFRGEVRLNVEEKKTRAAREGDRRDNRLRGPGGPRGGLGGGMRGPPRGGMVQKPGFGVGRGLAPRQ
Technique: RNA Bind-n-Seq
Form: RNA
Medium: in vitro
Concentration: 200 nM
Setting: whole 134-nt RNA, ends assumed
Together with: 150 mM LiCl
Baseline: input library
Reading: higher = stronger binding
Library: 7-deaza-guanosine replaces G
Strand | log2 enrichment
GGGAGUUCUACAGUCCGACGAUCUAACUUCAGAGGAGGAUCUGAUGGAUAUGGCAGUGGACGUGGAUUUGGGGAUGGCUAUAAUGGGUAUGGAGGAGGACCUGGAGGUGGCAAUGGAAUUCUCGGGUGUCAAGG | -0.0162
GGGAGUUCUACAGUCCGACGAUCGUCCUGUGCUACACAUCGUAUGUACCGAAUCGGGUUUUUUUGGGAAAAAAAGGGAGGGAAAGUAUUAUGUUACGCCGUUCGGAUCUGCACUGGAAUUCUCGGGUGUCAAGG | -1.44
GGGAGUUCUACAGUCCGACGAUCGCAGGAAGUAAAAACAAAUGGAAAUGCUUCGGAUAGUGGCAGGGGUGGGGGUUGCUAAGGAAAGUGUGGGAUGGGAGUGGGUAAAGAGUUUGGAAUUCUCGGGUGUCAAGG | 0.0759
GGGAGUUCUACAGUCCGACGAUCUGUCCCUGACUCUCCAUUUCCCCAUCUGAGUGGAUUUGGACCUAAUAGGGCACUGGAGCUGGUUCGAAUCCUGACUGGACUACUUGGCAAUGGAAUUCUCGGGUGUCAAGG | 1.15
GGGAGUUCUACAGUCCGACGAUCUGGGAGGUGGAUUUUGUUUAUUUUUCUAGCUCAUUUCCAGGGGUGGGAAUUUUUUUUUAAUAUGUGUCAUGAAUAAAGUUGUUUUUGAAAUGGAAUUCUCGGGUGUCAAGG | -0.338
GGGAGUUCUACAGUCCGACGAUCCCUGUGCUACACAUCGUAUGUACCGAAUCGGCCCCCCCGGGCCCCCCCGGCCCCCCCGGGGAAAGUAUUAUGUUACGCCGUUCGGAUCUGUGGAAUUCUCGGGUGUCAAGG | 0.18
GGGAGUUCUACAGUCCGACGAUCUCCUGUGCUACACAUCGUAUGUACCGAAUCGGGGAAAAAAGGAAAAAAGGAAAAAAGGGGAAAGUAUUAUGUUACGCCGUUCGGAUCUGCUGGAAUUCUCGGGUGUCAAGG | -0.186
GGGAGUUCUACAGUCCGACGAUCCCUCAAGUCCUGUGCUACACAUCGUAUGUACCGAAUCGGAGGGGAGGGGAGGAAAGUAUUAUGUUACGCCGUUCGGAUCUGCACUUCCAGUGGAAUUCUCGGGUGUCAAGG | -0.119

Other studies, line by line
Substance | target | assay | test system | setting | scale | measurement | value
PhoQ, residues 284 288 289 292 302 303 SSTLLI | PhoP, residues 12 14 15 18 19 NQCAL (Escherichia coli, UniProt P23836) | Sort-seq, item: YFP reporter | E. coli | PhoQ-PhoP variant library, together with: 10 µM Mg2+ | baseline: high Mg2+ state, higher = stronger signaling | fold induction | 1.24
